Published values from different studies.
Each line is one published result; not all experiments were run side by side.
Medium: plasma
Route: intravenous

SMILES | species | dose | setting | clearance [mL/min/kg]
C/C=C/C=C/C/C=C/CCCCCCCc1cccc(O)c1O | male Wistar rat | 20 mg/kg |  | 12.8
CCCC[C@@H]1NC(=O)[C@H](Cc2ccc(O)cc2)NC(=O)[C@@H]2CCCN2C(=O)[C@H](CC(=O)O)NC(=O)[C@H](C)NC(=O)[C@H](Cc2ccccc2)NC(=O)[C@@H]2CSCCC(=O)N3CN(CN(C3)C(=O)CCSC[C@@H](C(=O)N[C@@H](C)C(N)=O)NC1=O)C(=O)CCSC[C@H](NC(C)=O)C(=O)N[C@@H](CC(C)(C)C)C(=O)N1CCC[C@H]1C(=O)N[C@@H](CCC(=O)O)C(=O)N[C@H](CCCCNC(=O)CCc1cn(CCOCCOCCOCCN(CCOCCOCCOCCC(=O)N[C@H]3CSCCC(=O)N4CN5CN(C4)C(=O)CCSC[C@H](NC(=O)[C@@H](CC(=O)O)NC(=O)[C@H](Cc4cccc6ccccc46)NC(=O)[C@@H]4CCCN4C3=O)C(=O)N[C@@H](CCSC)C(=O)N[C@@H](CCCCNC(=N)N)C(=O)N[C@@H](CC(=O)O)C(=O)N[C@@H](Cc3c[nH]c4ccccc34)C(=O)N[C@@H](CO)C(=O)N[C@@H]([C@@H](C)O)C(=O)N3CCC[C@H]3C(=O)N3C[C@H](O)C[C@H]3C(=O)N[C@@H](Cc3c[nH]c4ccccc34)C(=O)N[C@H](C(N)=O)CSCCC5=O)CCOCCOCCOCCn3cc(CCC(=O)NCCCC[C@H]4NC(=O)[C@H](CCC(=O)O)NC(=O)[C@@H]5CCCN5C(=O)[C@H](CC(C)(C)C)NC(=O)[C@@H](NC(C)=O)CSCCC(=O)N5CN6CN(C5)C(=O)CCSC[C@H](NC(=O)[C@H](Cc5ccc(O)cc5)NC(=O)[C@@H]5CCCN5C4=O)C(=O)N[C@@H](Cc4ccccc4)C(=O)N[C@@H](C)C(=O)N[C@@H](CC(=O)O)C(=O)N4CCC[C@H]4C(=O)N[C@@H](Cc4ccc(O)cc4)C(=O)N[C@@H](CCCC)C(=O)N[C@H](C(=O)N[C@@H](C)C(N)=O)CSCCC6=O)nn3)nn1)C(=O)N1CCC[C@H]1C(=O)N[C@@H](Cc1ccc(O)cc1)C(=O)N2 | rat | 2 mg/kg |  | 8.5
c1ccc(C2(CCNC3CCC4(SCCS4)c4ccccc43)CCOC3(CCCC3)C2)nc1 (stereo not shown) | Sprague-Dawley rat | 0.15 mg/kg |  | 18.2
C[C@]12CC[C@H](OC(=O)NC3CCNCC3)C[C@H]1CC[C@@H]1[C@@H]2CC[C@]2(C)[C@@H](c3ccc(=O)oc3)CC[C@]12O | male Sprague-Dawley rat | 5 mg/kg | single dose | 3.33
CCCC[C@@H]1NC(=O)[C@H](Cc2ccc(O)cc2)NC(=O)[C@@H]2CCCN2C(=O)[C@H](CC(=O)O)NC(=O)[C@H](C)NC(=O)[C@H](Cc2ccccc2)NC(=O)[C@@H]2CSCCC(=O)N3CN(CN(C3)C(=O)CCSC[C@@H](C(=O)N[C@@H](C)C(N)=O)NC1=O)C(=O)CCSC[C@H](NC(C)=O)C(=O)N[C@@H](CC(C)(C)C)C(=O)N1CCC[C@H]1C(=O)N[C@@H](CCC(=O)O)C(=O)N[C@H](CCCCNC(=O)CCc1cn(CCOCCOCCOCCN(CCOCCOCCOCCC(=O)N[C@H]3CSCCC(=O)N4CN5CN(C4)C(=O)CCSC[C@H](NC(=O)[C@@H](CCC(=O)O)NC(=O)[C@H](Cc4cccc6ccccc46)NC(=O)[C@@H]4CCCN4C3=O)C(=O)N[C@@H](CCSC)C(=O)N[C@@H](CCCCNC(=N)N)C(=O)N[C@@H](CCC(=O)O)C(=O)N[C@@H](Cc3c[nH]c4ccccc34)C(=O)N[C@@H](CO)C(=O)N[C@@H]([C@@H](C)O)C(=O)N3CCC[C@H]3C(=O)N3C[C@H](O)C[C@H]3C(=O)N[C@@H](Cc3c[nH]c4ccccc34)C(=O)N[C@H](C(N)=O)CSCCC5=O)CCOCCOCCOCCn3cc(CCC(=O)NCCCC[C@H]4NC(=O)[C@H](CCC(=O)O)NC(=O)[C@@H]5CCCN5C(=O)[C@H](CC(C)(C)C)NC(=O)[C@@H](NC(C)=O)CSCCC(=O)N5CN6CN(C5)C(=O)CCSC[C@H](NC(=O)[C@H](Cc5ccc(O)cc5)NC(=O)[C@@H]5CCCN5C4=O)C(=O)N[C@@H](Cc4ccccc4)C(=O)N[C@@H](C)C(=O)N[C@@H](CC(=O)O)C(=O)N4CCC[C@H]4C(=O)N[C@@H](Cc4ccc(O)cc4)C(=O)N[C@@H](CCCC)C(=O)N[C@H](C(=O)N[C@@H](C)C(N)=O)CSCCC6=O)nn3)nn1)C(=O)N1CCC[C@H]1C(=O)N[C@@H](Cc1ccc(O)cc1)C(=O)N2 | rat | 2 mg/kg |  | 39
C[C@@](O)(C(F)F)[C@H](NC(=O)c1ccc(C#CC#CC2CC2)cc1)C(=O)NO | rat | 40 mg/kg |  | 29
C[C@@H]1CC[C@H]2[C@@H](C)CO[C@@H]3O[C@@]4(C)CC[C@@H]1[C@]32OO4 | male Sprague-Dawley rat | 5 mg/kg |  | 138
CCCCCCCC[C@@H]1NC(=O)[C@@H](Cc2ccccc2)NC(=O)[C@H](CCN)NC(=O)[C@@H](NC(=O)[C@H](CCN)NC(=O)[C@@H](NC(=O)[C@H](CCN)NC(=O)c2ccc(-c3ccccc3)cc2)[C@@H](C)O)CCNC(=O)[C@H]([C@@H](C)O)NC(=O)[C@H](CCN)NC(=O)[C@H](CCN)NC1=O | rat |  | single dose | 0.66 to 1.3
CC[C@H](C)[C@@H]1NC(=O)[C@@H](NC(=O)[C@H](CC(=O)O)NC(=O)[C@H](CCCCN)NC(=O)[C@H](CCC(=O)O)NC(=O)[C@H](C)NC(=O)CN)CSSC[C@@H]2NC(=O)[C@@H]3CSSC[C@@H](C(=O)N[C@@H](CC(C)C)C(=O)O)NC(=O)[C@H](CCCCN)NC(=O)[C@H](CC(N)=O)NC(=O)[C@H](C)NC(=O)[C@H](Cc4ccc(O)cc4)NC(=O)[C@H](CO)NC(=O)[C@H](CO)NC(=O)[C@H](CSSC[C@H](NC(=O)[C@@H]4CCCN4C(=O)[C@H](C)NC(=O)CNC(=O)[C@@H]4CCCN4C(=O)[C@H](C)NC1=O)C(=O)N[C@@H](Cc1ccccc1)C(=O)NCC(=O)N[C@@H]([C@@H](C)O)C(=O)N[C@@H](CC(=O)O)C(=O)N[C@@H](CCCCN)C(=O)N1CCC[C@H]1C(=O)N3)NC(=O)[C@H](Cc1c[nH]c3ccccc13)NC(=O)[C@H](C)NC(=O)[C@H](CCCNC(=N)N)NC(=O)[C@@H]1CCCN1C(=O)[C@H](CC(N)=O)NC2=O | male Sprague-Dawley rat | 1 mg/kg |  | 7
Cc1cc(Nc2nc(C[C@@]3(C(=O)O)CCN(Cc4cccc(Cl)c4F)[C@H](C)C3)cc(C)c2F)n[nH]1 | Sprague-Dawley rat | 0.5 mg/kg | single dose | 0.729

Excerpt of the above:
SMILES | species | dose | setting | clearance [mL/min/kg]
C/C=C/C=C/C/C=C/CCCCCCCc1cccc(O)c1O | male Wistar rat | 20 mg/kg |  | 12.8
CCCC[C@@H]1NC(=O)[C@H](Cc2ccc(O)cc2)NC(=O)[C@@H]2CCCN2C(=O)[C@H](CC(=O)O)NC(=O)[C@H](C)NC(=O)[C@H](Cc2ccccc2)NC(=O)[C@@H]2CSCCC(=O)N3CN(CN(C3)C(=O)CCSC[C@@H](C(=O)N[C@@H](C)C(N)=O)NC1=O)C(=O)CCSC[C@H](NC(C)=O)C(=O)N[C@@H](CC(C)(C)C)C(=O)N1CCC[C@H]1C(=O)N[C@@H](CCC(=O)O)C(=O)N[C@H](CCCCNC(=O)CCc1cn(CCOCCOCCOCCN(CCOCCOCCOCCC(=O)N[C@H]3CSCCC(=O)N4CN5CN(C4)C(=O)CCSC[C@H](NC(=O)[C@@H](CC(=O)O)NC(=O)[C@H](Cc4cccc6ccccc46)NC(=O)[C@@H]4CCCN4C3=O)C(=O)N[C@@H](CCSC)C(=O)N[C@@H](CCCCNC(=N)N)C(=O)N[C@@H](CC(=O)O)C(=O)N[C@@H](Cc3c[nH]c4ccccc34)C(=O)N[C@@H](CO)C(=O)N[C@@H]([C@@H](C)O)C(=O)N3CCC[C@H]3C(=O)N3C[C@H](O)C[C@H]3C(=O)N[C@@H](Cc3c[nH]c4ccccc34)C(=O)N[C@H](C(N)=O)CSCCC5=O)CCOCCOCCOCCn3cc(CCC(=O)NCCCC[C@H]4NC(=O)[C@H](CCC(=O)O)NC(=O)[C@@H]5CCCN5C(=O)[C@H](CC(C)(C)C)NC(=O)[C@@H](NC(C)=O)CSCCC(=O)N5CN6CN(C5)C(=O)CCSC[C@H](NC(=O)[C@H](Cc5ccc(O)cc5)NC(=O)[C@@H]5CCCN5C4=O)C(=O)N[C@@H](Cc4ccccc4)C(=O)N[C@@H](C)C(=O)N[C@@H](CC(=O)O)C(=O)N4CCC[C@H]4C(=O)N[C@@H](Cc4ccc(O)cc4)C(=O)N[C@@H](CCCC)C(=O)N[C@H](C(=O)N[C@@H](C)C(N)=O)CSCCC6=O)nn3)nn1)C(=O)N1CCC[C@H]1C(=O)N[C@@H](Cc1ccc(O)cc1)C(=O)N2 | rat | 2 mg/kg |  | 8.5
